Measured values from different studies.
Protocols differ between the studies behind these lines. Numbers after ± are the reported error. In brackets after ≈: the same amount, converted by molar mass.

Structure (SMILES) | organism | assay | test system | conditions | how to read | endpoint | result
CS(=O)(=O)Nc1ncn(-c2cc(F)c(COc3ccc(OS(=O)(=O)F)cc3)c(F)c2)n1 | Mycolicibacterium smegmatis | – | – | – | – | MIC | 6.25 µM
CCCCCCC#Cc1cncc(-c2nnc(SCc3cc([N+](=O)[O-])cc([N+](=O)[O-])c3)n2C)c1 | Mycolicibacterium smegmatis | – | – | – | no activity below value | MIC | ≥ 100 µM
COc1ccc(C2=N[C@@H](c3ccc(Cl)cc3)[C@@H](c3ccc(Cl)cc3)N2C(=O)N2CCNC(=O)C2)c(OC(C)C)c1 | human coronavirus OC43 | virus-induced cell killing | MRC-5 | maximum over 10 doses | – | maximum inhibition | 0%
CO[C@H]1[C@H](O[C@H]([C@H]2O[C@@H](n3ccc(=O)[nH]c3=O)[C@H](O)[C@@H]2O)[C@H](NCCCNC(=O)[C@@H](NC(=O)[C@@H](NC(=O)N[C@H](C(=O)O)C(C)C)[C@@H]2CCN=C(N)N2)[C@@H](OC(=O)CCCCCCCCCCCCN(O)C(=N)N)C(C)C)C(=O)O)O[C@H](CN)[C@H]1O | Mycolicibacterium smegmatis | microplate alamar blue | ATCC 607 | nutrient-deficient condition | – | MIC90 | 0.04 ± 0.005 µg/mL (≈ 0.0329 µM)
CN(C)CCOc1ccc(-c2nc(-c3ccncc3)c(-c3ccc4c(c3)CC/C4=N\O)[nH]2)cc1 | human coronavirus OC43 | virus-induced cell killing | MRC-5 | screen | – | maximum inhibition | 3.88%
CC(=O)N[C@H]1[C@@H](O[C@@H]2O[C@H](C[C@@H](O)[C@H]3O[C@@H](n4ccc(=O)[nH]c4=O)[C@H](O)[C@@H]3O)[C@H](O)[C@H](O)[C@H]2NC(=O)/C=C/CCCCCCCCCC(C)C)O[C@H](CO)[C@@H](O)[C@@H]1O | Mycolicibacterium smegmatis | microplate alamar blue | ATCC 607 | nutrient-deficient condition | – | MIC90 | 12.6 µg/mL (≈ 15.2 µM)
O=C(NCc1ccccc1)C(c1cccs1)N(CCN1CCOCC1)C(=O)c1ccccc1 (centres unmarked) | Mycolicibacterium smegmatis | – | mc2155 | – | – | MIC | > 128 µM
[H]/N=C(/N)N[C@H]1[C@H](O)[C@@H](O)[C@H](O[C@@H]2O[C@@H](C)[C@](O)(C=O)[C@H]2O[C@@H]2O[C@@H](CO)[C@H](O)[C@@H](O)[C@@H]2NC)[C@@H](N/C(N)=N\[H])[C@@H]1O | Mycolicibacterium smegmatis | – | – | – | – | MIC | 0.4 µg/mL
CCc1nc2ccc(Cl)cn2c1C(=O)NCc1ccc(N2CCC(c3ccc(OC(F)(F)F)cc3)CC2)cc1 | Mycolicibacterium smegmatis | – | – | 72 h | – | MIC | > 100 µM
O=C(NC1CCCCC1)C(CCc1ccccc1)N(CCc1c[nH]cn1)C(=O)c1ccccc1 (centres unmarked) | Mycolicibacterium smegmatis | – | mc2155 | – | – | MIC | > 128 µM
CO[C@H]1/C=C/O[C@@]2(C)Oc3c(C)c(O)c4c(O)c(c(/C=N/N5CCN(C)CC5)c(O)c4c3C2=O)NC(=O)/C(C)=C\C=C\[C@H](C)[C@H](O)[C@@H](C)[C@@H](O)[C@@H](C)[C@H](OC(C)=O)[C@@H]1C | Mycolicibacterium smegmatis | – | – | – | – | MIC | 12.5 to 25 µg/mL

Repeated from above:
Structure (SMILES) | organism | assay | test system | conditions | how to read | endpoint | result
CO[C@H]1[C@H](O[C@H]([C@H]2O[C@@H](n3ccc(=O)[nH]c3=O)[C@H](O)[C@@H]2O)[C@H](NCCCNC(=O)[C@@H](NC(=O)[C@@H](NC(=O)N[C@H](C(=O)O)C(C)C)[C@@H]2CCN=C(N)N2)[C@@H](OC(=O)CCCCCCCCCCCCN(O)C(=N)N)C(C)C)C(=O)O)O[C@H](CN)[C@H]1O | Mycolicibacterium smegmatis | microplate alamar blue | ATCC 607 | nutrient-deficient condition | – | MIC90 | 0.04 ± 0.005 µg/mL (≈ 0.0329 µM)
